Measurements gathered from unrelated publications.
Every numbered part comes from another study and shows a few of its results, in no order.

Set 1
Target: Transcription factor SOX-2, HMG box (SOX2, Homo sapiens, UniProt P48431, residues 19-118)
Sequence of UniProt P48431 (19-118, looked up): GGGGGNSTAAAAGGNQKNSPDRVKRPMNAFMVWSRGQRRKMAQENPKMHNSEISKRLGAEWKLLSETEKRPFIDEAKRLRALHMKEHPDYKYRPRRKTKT
Method: protein-binding microarray
Form: double-stranded DNA, one strand shown
Matrix: in vitro
Tested at: not given
Notes: k-mer, scored over probes, only values ≥0.25
Reading: higher = stronger binding
Measurement: E-score
AATTCTG: 0.279
ACGGCCT: 0.325
CAATTTA: 0.321
TGACAAA: 0.286
ATTATGC: 0.369
TTATAAA: 0.306
ATTTATA: 0.306
ATACATA: 0.289
ACATATA: 0.324
GAATTTA: 0.271
ACTAAAT: 0.264
ATTGAAG: 0.28
AATGGCA: 0.312
ACAATCT: 0.363
GACAATA: 0.445

Set 2
Target: Interferon regulatory factor 5, full length, phosphomimetic (IRF5, Homo sapiens, UniProt Q13568-2, residues 1-514, K96S/S451D/S453D/S456D/S462D)
Method: protein-binding microarray
Form: double-stranded DNA, one strand shown
Matrix: in vitro
Tested at: 250 nM
Notes: 60-bp whole probe
Added: salmon DNA 0.4 mg/ml
Baseline: random background probes
Reading: higher = stronger binding
Measurement: log fluorescence
Constant ends, left off below: GCCTAGCAC … GTCTTGATTCGCTTGACGCTGCTG
AATCATTCACCTGTCGTTGAGTGCTAG: 0.592 z-score
TCAGCTTTCTCTTTCACACTGTGCTAG: 4.81 z-score
GACGTTCTCCTTCTCCTGACGTGCTAG: 0.13 z-score
TCTATAATGGATATATATCAGTGCTAG: 0.667 z-score
TCAGTTCTGCTTTGCCTACTGTGCTAG: 0.263 z-score
CTTAGTTTGTATATATTTTAGTGCTAG: 0.784 z-score
TTAGATAGCAGTCTCGATTAGTGCTAG: 0.52 z-score
TCAAATTTTTGCATCGTACTGTGCTAG: 0.666 z-score
TTACGTATCCTTATCCTTTAGTGCTAG: 1.1 z-score
TCAGTTTTTATTTTCTGACTGTGCTAG: 1.64 z-score
TTGGAACTGGGGACTGGATTAGTGCTA: -0.524 z-score
TGCTCCTTATGGCTAAAGGGGTGCTAG: -0.413 z-score
TTAGACATCAGTATCGATTAGTGCTAG: 7.08 z-score
GACGGACTGGGTATCGGCACGTGCTAG: 0.418 z-score
GACGGTTCCCTTGTCCTGACGTGCTAG: -0.112 z-score
TTAGGTCTGGGGACTGGGTTAGTGCTA: -0.474 z-score
TTAGGTTGCGGGACTGGGTTAGTGCTA: -0.268 z-score
TTGGATATCAGTCTCGATTAGTGCTAG: 1.6 z-score
GAACATATTTGTTTCCATTTGTGCTAG: 1.35 z-score
TCAGTTGTCCAGGCTGGTACTGTGCTA: -0.424 z-score

Set 3
Target: Prothrombin, mature alpha-thrombin (F2, Homo sapiens, UniProt P00734)
Method: aptamer microarray, sandwich
Form: DNA with 2'F-ANA
Matrix: in vitro
Tested at: 200 nM
Notes: whole 15-mer aptamer, many near background
Added: Cy3 exosite-II aptamer, 400 nM
Reading: higher = stronger binding
Measurement: mean fluorescence intensity
Sequence: GGTTGGTGTGGTTGG
2'F-ANA at 3 5 9 10 11 14: 92.1 a.u.
2'F-ANA at 3 4 6 7 8 10 11 12 13: 259 a.u.
2'F-ANA at 1 8 15: 281 a.u.
2'F-ANA at 5 6 7 8 11 13 15: 60.7 a.u.
2'F-ANA at 1 3 8 11 12 13 15: 476 a.u.
2'F-ANA at 1 2 3 4 6 8 13 15: 150 a.u.
2'F-ANA at 1 4 5 7 8 9 11 12: 110 a.u.
2'F-ANA at 2 4 6 8 14: 92.5 a.u.
2'F-ANA at 1 4 8 9 10 14 15: 45.5 a.u.
2'F-ANA at 1 4 6 11 13 15: 92.7 a.u.
2'F-ANA at 1 4 5 7 8 9 10 11 12 13: 48.4 a.u.
2'F-ANA at 1 2 3 4 5 6 8 10 11 14: 50.3 a.u.
2'F-ANA at 1 2 5 7 8 9 11 13 14: 44.8 a.u.
2'F-ANA at 1 2 3 4 5 8 10 11 12 15: 92.8 a.u.
2'F-ANA at 1 3 4 5 7 10 11: 48.3 a.u.
2'F-ANA at 1 2 5 7 9 10 12 13: 61.8 a.u.
2'F-ANA at 1 3 6 10 11 15: 72.3 a.u.

Set 4
Target: Ras GTPase-activating protein-binding protein 1, full length (G3BP1, Homo sapiens, UniProt Q13283)
Sequence of UniProt Q13283 (whole entry, looked up): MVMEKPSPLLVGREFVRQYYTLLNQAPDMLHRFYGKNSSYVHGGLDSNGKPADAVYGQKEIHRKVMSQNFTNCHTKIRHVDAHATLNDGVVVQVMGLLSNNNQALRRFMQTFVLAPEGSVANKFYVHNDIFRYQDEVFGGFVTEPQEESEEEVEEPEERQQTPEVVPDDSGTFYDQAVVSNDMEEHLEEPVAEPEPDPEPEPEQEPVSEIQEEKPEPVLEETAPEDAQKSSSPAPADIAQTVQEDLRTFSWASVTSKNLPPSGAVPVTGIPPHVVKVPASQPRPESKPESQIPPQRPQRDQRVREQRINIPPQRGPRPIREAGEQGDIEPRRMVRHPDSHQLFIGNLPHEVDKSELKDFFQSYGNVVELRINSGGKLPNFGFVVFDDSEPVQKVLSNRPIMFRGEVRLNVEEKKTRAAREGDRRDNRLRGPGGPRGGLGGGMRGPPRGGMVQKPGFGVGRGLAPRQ
Method: RNA Bind-n-Seq
Form: RNA
Matrix: in vitro
Tested at: 200 nM
Notes: whole 134-nt RNA, ends assumed
Added: 150 mM LiCl
Baseline: input library
Reading: higher = stronger binding
Measurement: log2 enrichment
Each molecule: 7-deaza-guanosine replaces G
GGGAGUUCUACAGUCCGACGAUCUGGGAGGUGGAUUUUGUUUAUUUUUUUAGCUCAUUUCCAGGGGUGGGAAUUUUUUUUUAAUAUGUGUCAUGAAUAAAGUUCUUUUUGAAAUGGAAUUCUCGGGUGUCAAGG: -0.419
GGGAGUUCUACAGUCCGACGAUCUGGCCCUGGUGGCAUGCGGGGAGGAAGAGGUGGCCUCAUGGAUCGUGGUGGUCCCGGUGGAAUGUUCAUAGGUGGCCGUGGUGGAGACAGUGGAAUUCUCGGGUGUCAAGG: -0.204
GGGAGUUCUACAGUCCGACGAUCACCAUGCAGGUGGGCAUCUUUGGGGAGUGGGGCAAGGGGGGGAUAGGGAGGGGGGUAACACUUUGGGAACAGGUGGUCCCAGGUCGUUUCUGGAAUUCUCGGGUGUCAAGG: -0.0367
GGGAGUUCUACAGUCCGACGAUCCUGUGCUACACAUCGUAUGUACCGAAUCGGGGCCCCCCGGGGCCCCCCGGGGCCCCCCGGGGAAAGUAUUAUGUUACGCCGUUCGGAUCUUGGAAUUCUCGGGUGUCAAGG: -1.59
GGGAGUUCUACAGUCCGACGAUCAAGUCCUGUGCUACACAUCGUAUGUACCGAAUCGGGUUUUUGGGAAAGGGAAAGGGAAAGUAUUAUGUUACGCCGUUCGGAUCUGCACUUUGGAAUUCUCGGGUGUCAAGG: -0.22
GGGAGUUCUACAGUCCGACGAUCAGUCCUGUGCUACACAUCGUAUGUACCGAAUCAAACCCCCCCAAACCCAAAUUUAAAAAAGUAUUAUGUUACGCCGUUCGGAUCUGCACUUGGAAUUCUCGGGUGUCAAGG: 0.942
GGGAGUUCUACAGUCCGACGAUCUCCUCAAGUCCUGUGCUACACAUCGUAUGUACCGAAUCGGUGGUGGGGUGGGAAAGUAUUAUGUUACGCCGUUCGGAUCUGCACUUCCAGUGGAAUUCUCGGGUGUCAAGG: 0.994
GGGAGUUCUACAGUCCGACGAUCCACAGACAACACGCACCCACACAGACACAGAGGGAAGGGGUUGGGAUGGCGACAGGGUGCACAGCAGGGCGGGGUAGGACCCCAGCCCCUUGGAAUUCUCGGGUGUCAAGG: 0.261
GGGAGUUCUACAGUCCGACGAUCCAAGUCCUGUGCUACACAUCGUAUGUACCGAAUCGGGGCCCGGCCCGGGCCCGGGAAAGUAUUAUGUUACGCCGUUCGGAUCUGCACUUCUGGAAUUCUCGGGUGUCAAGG: -1.1
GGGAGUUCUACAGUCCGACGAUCAGUCCUGUGCUACACAUCGUAUGUACCGAAUCGGGGAAAGGGGUUUGGGGUUUGGGGAAAGUAUUAUGUUACGCCGUUCGGAUCUGCACUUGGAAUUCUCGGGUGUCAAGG: -0.751
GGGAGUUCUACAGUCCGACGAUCAGUCCUGUGCUACACAUCGUAUGUACCGAAUCAAACCCAAAUUUUUAAAUUUUUAAAAAAGUAUUAUGUUACGCCGUUCGGAUCUGCACUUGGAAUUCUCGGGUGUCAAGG: -0.864

Set 5
Target: RNA binding protein fox-1 homolog 2, RRM domain, GST-SBP tag (RBFOX2, Homo sapiens, UniProt O43251-10, residues 100-194)
Method: RNA Bind-n-Seq
Form: RNA
Matrix: in vitro
Tested at: 365 nM
Notes: natural RNA segment, single round, ends assumed
Baseline: no-protein control
Reading: higher = stronger binding
Measurement: RBNS enrichment (R)
Construct (chain): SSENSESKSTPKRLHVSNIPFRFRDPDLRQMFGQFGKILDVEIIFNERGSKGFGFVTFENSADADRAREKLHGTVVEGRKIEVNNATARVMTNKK
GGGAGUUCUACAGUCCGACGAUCUGCAGCUUCCACGGAAUCCCUCCCUCACUGCCAGAGCAGCAUCUUCUCUGUGUACCACCUCUGCUGUCUCAGAUGCCCCCAGCAAAUAAACACUCUUCUCGUUGGUCAGAUGGAAUUCUCGGGUGCCAA: 1.85
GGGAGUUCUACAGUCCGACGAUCGAUAAAUAGCAAGAAUGGAUGUGUAAUGUGACAAUCAAGGCAGAUAUUUGUUCUAGUUGGAAAGACGAAGCACUUUAUAAGCAUCAGACAAGUGUUUGGGACUAAUUGAGUGGAAUUCUCGGGUGCCAA: 0.799
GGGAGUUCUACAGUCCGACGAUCAGGAACUGUAUUAAAGUUUAGUUUACUAUAGAUUGGUCCCCACUGAAGACUUUCUCCACUCUGACCAGAUUUAUAAAAUUUCUCCUUUCAUAGAUUUAGUCAGAAGCUGUUGGAAUUCUCGGGUGCCAA: 0.613
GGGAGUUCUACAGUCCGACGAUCGGAACAAAGCAGAGACAUUUAUUCACCUUGACUCCCCAGGGAAGCCUUCCACACUAGAUGGUCCAAUCCUACUGGAUGGUCGGUUGCUGCUCACAUCUGCCUGCAAGUCUUGGAAUUCUCGGGUGCCAA: 0.542
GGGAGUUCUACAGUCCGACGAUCCCAAACUCAAAGAAUGGGGUGGUGGGGGGCACCCUGUGAGGUGGCCCCUGAGAGGUGGGGGCCUCUCCAGGGCACAUCUGGAGUUCUUCUCCAGCUUACCCUAGGGUGACUGGAAUUCUCGGGUGCCAA: 0.355
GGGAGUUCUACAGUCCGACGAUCACUAACUCAGUACUCGUGGGAGGACACCCGACCCGGGUGUUCUUUGAGAAGCAGCUGAGUGAGGCAUGUUUUGACAGGAGGAACCCAGUUCUUUUCACUGUUGGUAUUUAUGGAAUUCUCGGGUGCCAA: 1.31
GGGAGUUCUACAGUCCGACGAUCACAAGGGGCUGGCUGUCCUGGGCUCCCUGACCCACUGAAGCUUCUCAGCACGUUCCUCCCUGGAGAGCGGGCGCCACGGCUGGUAUUCUGCAGGCUGAAUGCAGUCUCCAUGGAAUUCUCGGGUGCCAA: 0.718
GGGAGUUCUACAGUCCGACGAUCGACCAGAAGUUGCACAGACAUGAUUUGUGCUGGAGUCAAGGGGCAGAACAGAAGAAUCUGACAGGCACUAAUUGGAUACUGUGGCUUGUUUGGAUAGAAAUUCUGAAUGGUGGAAUUCUCGGGUGCCAA: 0.729
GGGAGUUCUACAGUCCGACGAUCGCCAGAGGGAACUGCCCUGCAAGGGUGGGCCCCCAGCCGGCAGGGGAACUUUCUAGACUCCCGCUCAUUCAAUUGAUCUAGGCAUUUGGGCUUGCUACUUGACCAUUCUCUGGAAUUCUCGGGUGCCAA: 0.23
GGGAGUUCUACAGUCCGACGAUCGCCUCUUCUGGCUGUCAGGAGCAAAGCCUGAAGACUUGGAGCUGCAGGACUGGAAGAACAGUGGAGCCCCGUGGGUCUCACCCUUUAAGGAUGCUGAGGCCUAGAGAUGGUGGAAUUCUCGGGUGCCAA: 0.709
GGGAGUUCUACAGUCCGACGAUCUGUGUCAAUGAAUGGAAGCAGGUGCACCCUGAAGACCACAAGUUAAAUAAAUACCAUGACUGGCUUUGGGAGAAUCAUGAAAAAUUAAGUCUAUCUUGAAGCUGCCUGUUUGGAAUUCUCGGGUGCCAA: 1.14
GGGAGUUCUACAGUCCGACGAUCACCAAGGGUACACGCAGGCAUGCACGGGUUUCCUGCCCAGCGACGGCUUAAGCCAGCCCCCGACUGGCCUGGCCACACUGCUCUCCAGUAGCACAGAUGUCUGCUCCUCCUGGAAUUCUCGGGUGCCAA: 0.413

Other studies, line by line
GSPAKKLFTSTGL  enrichment score (human cyclin A2; peptide binding, competitive growth sequencing; peptide, Saccharomyces cerevisiae, cyclin A2-Cln2 fusion strain; mutational scanning library 1; direction not given): 0.0552

For quick reference, copied from above (set 1):
ATTATGC: 0.369
TGACAAA: 0.286
ACTAAAT: 0.264
ACGGCCT: 0.325
AATTCTG: 0.279
TTATAAA: 0.306
ATTGAAG: 0.28
ACAATCT: 0.363
GACAATA: 0.445
GAATTTA: 0.271
